Values quoted from earlier work, collected from citations in different studies.
± gives the spread as reported. ≈ marks a conversion by molar mass, not a printed value.

CCOP(=O)(OCC)ON1C(=O)c2cccc3cccc(c23)C1=O
LD50 (rat; oral): 140 mg/kg

O=C(Nc1ccc(Cl)c(-c2nc3ncccc3o2)c1)c1cccc(OCc2ccccc2)c1
IC50 (Replicase polyprotein 1ab, helicase nsp13 (rep, Severe acute respiratory syndrome-related coronavirus, UniProt P0C6X7); DNA duplex unwinding, inhibitor): 6000 nM

CCCC1c2ccccc2C=NN1C(=O)/C=C/c1cc(Cc2cnc(N)nc2N)cc(OC)c1OC (racemic)
Ki (dfrA (Bacillus anthracis, UniProt Q81R22)): 9.4 ± 0.2 nM

COc1cc(Cc2cnc(N)nc2N)cc(/C=C/C(=O)N2N=Cc3ccccc3C2CC(C)C)c1OC (racemic)
MIC (Bacillus anthracis): 1 to 2 µg/mL (≈ 2 to 4 µM)

CC[C@H](C)[C@H](NC(=O)[C@H](CCCNC(=N)N)NC(=O)[C@H](CCCCN)NC(=O)[C@H](CC(C)C)NC(=O)[C@H](CS)NC(=O)[C@H](CCC(=O)O)NC(=O)[C@H](CO)NC(=O)[C@H](CC(C)C)NC(=O)[C@H](CCCCN)NC(=O)[C@H](CCCCN)NC(=O)[C@@H](NC(=O)[C@H](CO)NC(=O)[C@H](C)NC(=O)[C@H](CC(=O)O)NC(=O)[C@H](CCC(N)=O)NC(=O)[C@@H]1CCCN1C(=O)[C@@H](N)C(C)C)[C@@H](C)O)C(=O)NCC(=O)N[C@@H](CC(=O)O)C(=O)N[C@@H](CCC(=O)O)C(=O)N[C@@H](CC(C)C)C(=O)N[C@@H](CC(=O)O)C(=O)N[C@@H](CO)C(=O)N[C@@H](CC(N)=O)C(=O)N[C@@H](CCSC)C(=O)N[C@@H](CCC(=O)O)C(=O)N[C@@H](CC(C)C)C(=O)N[C@@H](CCC(N)=O)C(=O)O
Kd (variola virus F1L; binding; together with: BH3 peptides): 960 nM

COc1cc(Cc2cnc(N)nc2N)cc(/C=C/C(=O)N2N=Cc3ccccc3C2C=C(C)C)c1OC (racemic)
MIC (Bacillus anthracis; Sterne): 0.5 µg/mL (≈ 1 µM)

CCOc1c(SSc2cnn(-c3ccccc3)c(=O)c2OCC)cnn(-c2ccccc2)c1=O
IC50 (Sortase A (Bacillus anthracis str. H9401, UniProt P0DPQ5); inhibitor): 1200 ± 400 nM

c1cc[n+](CCCCCCCCCC[n+]2ccccc2)cc1
protective ratio (mouse; relative to: LD50 pretreated over non-pretreated): 0.91
